Experimental data from different studies.
Parts stem from different laboratories: compare values within a part only.

Series 1
Target: Histone acetyltransferase KAT6A, winged helix 1, GST fusion (KAT6A, Homo sapiens, UniProt Q92794, residues 1-85)
Technique: protein binding microarray
Form: double-stranded DNA, one strand shown
Sample: in vitro
Concentration: not given
Notes: 8-mer, flanks averaged, mean of 2 arrays, mostly near background
Baseline: not given
Reading: higher = stronger binding
Construct (chain): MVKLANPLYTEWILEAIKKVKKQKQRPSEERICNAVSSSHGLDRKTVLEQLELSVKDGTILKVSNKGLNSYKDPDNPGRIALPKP
`CTCACTTA` has an E-score of -0.184.
`ACCAGAGC` gave an E-score of -0.0502.
The E-score of `CCATGAGA` is reported as -0.124.
The E-score of `GCGCCCGC` is reported as 0.45.
`GCAGTTCA` gave an E-score of -0.0483.
The E-score of `CGAACTCC` is reported as 0.0783.

Series 2
Target: Sal-like protein 4, full length isoform A (SALL4, Homo sapiens, UniProt Q9UJQ4, residues 1-1053)
Chain of UniProt Q9UJQ4 (whole entry, looked up): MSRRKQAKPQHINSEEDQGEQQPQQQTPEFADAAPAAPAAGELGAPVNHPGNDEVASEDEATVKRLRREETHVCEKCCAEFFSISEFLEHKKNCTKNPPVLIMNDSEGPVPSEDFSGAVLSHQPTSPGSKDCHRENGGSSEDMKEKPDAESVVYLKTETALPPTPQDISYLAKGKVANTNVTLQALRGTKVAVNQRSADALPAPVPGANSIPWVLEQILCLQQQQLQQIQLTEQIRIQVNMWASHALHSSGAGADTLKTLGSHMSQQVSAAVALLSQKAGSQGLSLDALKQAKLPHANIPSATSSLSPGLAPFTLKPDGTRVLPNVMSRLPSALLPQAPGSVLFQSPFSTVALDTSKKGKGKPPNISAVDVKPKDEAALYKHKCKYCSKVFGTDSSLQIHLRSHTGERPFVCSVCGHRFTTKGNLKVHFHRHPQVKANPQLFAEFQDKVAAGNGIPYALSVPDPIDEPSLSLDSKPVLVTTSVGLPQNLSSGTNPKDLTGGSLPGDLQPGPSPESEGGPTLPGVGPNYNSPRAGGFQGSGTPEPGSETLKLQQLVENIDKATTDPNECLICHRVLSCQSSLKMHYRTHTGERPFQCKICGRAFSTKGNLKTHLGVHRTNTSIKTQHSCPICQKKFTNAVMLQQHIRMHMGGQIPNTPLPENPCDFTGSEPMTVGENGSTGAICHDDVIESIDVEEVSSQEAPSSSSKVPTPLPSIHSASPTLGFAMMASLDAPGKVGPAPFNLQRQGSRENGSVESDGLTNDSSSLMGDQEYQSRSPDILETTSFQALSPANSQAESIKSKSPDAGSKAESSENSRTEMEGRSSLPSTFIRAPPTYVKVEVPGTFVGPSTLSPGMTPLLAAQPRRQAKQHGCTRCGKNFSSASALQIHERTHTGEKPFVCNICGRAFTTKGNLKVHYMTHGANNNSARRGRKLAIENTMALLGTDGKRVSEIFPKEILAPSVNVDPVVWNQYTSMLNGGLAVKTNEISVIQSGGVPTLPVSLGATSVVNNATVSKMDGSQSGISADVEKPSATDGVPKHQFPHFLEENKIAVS
Technique: universal PBM
Form: double-stranded DNA, one strand shown
Sample: in vitro
Concentration: 600 nM
Notes: 8-mer, flanks averaged, mean of replicates
Reading: higher = stronger binding
`ACCTTAAG` has an E-score of 0.0897.
The E-score of `ATTTTACC` is reported as 0.297.
For `CCTGGGGC`, the E-score was -0.449.
For `ACCGCAGG`, the E-score was -0.228.

Series 3
Target: Cyclic AMP-dependent transcription factor ATF-1 (ATF1, Homo sapiens, UniProt P18846, residues 1-271, full length assumed)
Technique: protein-binding microarray
Form: double-stranded DNA, one strand shown
Sample: in vitro
Concentration: not given
Notes: k-mer, scored over probes, only values ≥0.25
Reading: higher = stronger binding
Residues (chain): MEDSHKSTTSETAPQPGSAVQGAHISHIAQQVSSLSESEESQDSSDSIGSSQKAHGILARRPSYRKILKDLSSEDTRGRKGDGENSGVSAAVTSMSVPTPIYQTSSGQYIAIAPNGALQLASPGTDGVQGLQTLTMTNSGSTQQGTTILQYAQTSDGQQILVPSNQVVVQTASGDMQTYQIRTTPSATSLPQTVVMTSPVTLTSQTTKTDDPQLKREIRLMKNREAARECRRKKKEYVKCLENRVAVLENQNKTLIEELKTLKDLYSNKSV
With `CGTGTCA` the E-score was 0.353.
`ATGACGG` has an E-score of 0.424.
`CACGTCG` gave an E-score of 0.309.
For `ACGCCGT`, the E-score was 0.264.
With `GTGACGA` the E-score was 0.446.
With `GACGTGC` the E-score was 0.287.
`CACGTCA` has an E-score of 0.49.
`ACGTGTG` gave an E-score of 0.363.
`ACATCCA` has an E-score of 0.27.

Single results of other studies
The fold induction of `PhoQ, residues 284 288 289 292 302 303 SLCLSL` is reported as 7 (PhoP, residues 12 14 15 18 19 QYCSL (Escherichia coli, UniProt P23836); Sort-seq, refers to: YFP reporter; E. coli; PhoQ-PhoP variant library, with: 10 µM Mg2+; baseline: high Mg2+ state, higher = stronger signaling).
